Assay results of several laboratories.
Every numbered part comes from another study and shows a few of its results, in no order. Several values in a cell are separate wells, animals, samples, runs or records.

Study 1
Compound: CCCN1C(=O)C(O)(C(=O)O)Oc2cc(F)ccc21 (centres unmarked)
Organism: Arabidopsis thaliana
Read-out: root length
Strain: Col-0
Time: 7 days
Setting: seed germination, dark
Endpoint: inhibition
25.0 µg/mL: 51.1%
3.13 µg/mL: 9.4%
12.5 µg/mL: 30.8%

Study 2
Structure (SMILES): Cc1ncc(-c2cc3c(C#N)c(-c4c(C)ccc(O)c4C)cnc3[nH]2)cn1
Target: Membrane-associated tyrosine- and threonine-specific cdc2-inhibitory kinase (PKMYT1, Homo sapiens, UniProt Q99640)
Endpoint: inhibition
Target sequence (Q99640 1-499): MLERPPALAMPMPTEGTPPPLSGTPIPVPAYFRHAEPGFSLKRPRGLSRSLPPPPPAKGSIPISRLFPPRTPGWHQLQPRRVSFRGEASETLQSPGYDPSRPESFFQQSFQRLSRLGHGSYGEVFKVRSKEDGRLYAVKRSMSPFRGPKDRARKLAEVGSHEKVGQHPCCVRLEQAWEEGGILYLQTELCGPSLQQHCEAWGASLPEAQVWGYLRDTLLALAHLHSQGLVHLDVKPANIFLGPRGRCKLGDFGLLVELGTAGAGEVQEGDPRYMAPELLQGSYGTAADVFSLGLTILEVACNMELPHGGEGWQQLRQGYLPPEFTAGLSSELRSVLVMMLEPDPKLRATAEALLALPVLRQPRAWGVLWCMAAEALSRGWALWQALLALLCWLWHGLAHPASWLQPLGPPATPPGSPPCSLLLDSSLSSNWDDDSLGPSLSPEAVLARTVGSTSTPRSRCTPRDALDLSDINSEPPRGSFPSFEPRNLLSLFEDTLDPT
0.00457 µM: 83.1%
0.00152 µM: 48.2%
0.000508 µM: 4.73%
cell-free assay, TR-FRET; 0.1235 µM: 99.1%

Other studies, line by line
MPO: Myeloperoxidase (MPO, Homo sapiens, UniProt P05164)
UniProt P05164, sequence (whole entry, looked up): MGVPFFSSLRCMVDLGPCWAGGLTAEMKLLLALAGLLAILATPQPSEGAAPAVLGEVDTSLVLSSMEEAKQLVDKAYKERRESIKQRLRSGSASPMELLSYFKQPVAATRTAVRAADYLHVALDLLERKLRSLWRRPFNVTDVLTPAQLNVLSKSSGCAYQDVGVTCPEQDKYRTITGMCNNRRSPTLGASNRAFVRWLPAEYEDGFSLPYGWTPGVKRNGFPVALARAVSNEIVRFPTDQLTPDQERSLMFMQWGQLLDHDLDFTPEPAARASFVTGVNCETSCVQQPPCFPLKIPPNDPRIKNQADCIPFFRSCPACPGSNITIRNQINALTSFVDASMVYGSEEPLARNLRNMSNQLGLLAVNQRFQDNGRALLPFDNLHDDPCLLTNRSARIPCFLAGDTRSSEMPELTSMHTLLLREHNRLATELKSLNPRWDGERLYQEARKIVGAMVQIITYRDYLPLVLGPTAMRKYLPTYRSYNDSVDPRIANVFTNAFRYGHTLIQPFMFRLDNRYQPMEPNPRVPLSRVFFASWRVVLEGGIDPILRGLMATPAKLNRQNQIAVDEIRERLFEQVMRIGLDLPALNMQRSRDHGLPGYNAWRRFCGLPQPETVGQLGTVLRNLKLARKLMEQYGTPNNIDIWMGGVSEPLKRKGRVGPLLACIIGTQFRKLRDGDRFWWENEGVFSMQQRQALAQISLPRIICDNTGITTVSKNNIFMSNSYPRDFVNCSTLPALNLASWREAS
NC/C(=C\F)COc1ccc(Cl)c(-c2cc(=O)[nH]c(=S)n2CC(N)=O)c1
inhibition (MPO; enzyme activity, inhibitor, fluorescence; 6.9 nM): 4.73%

COCC1CC2C(CCC3(C)C(O)CCC23)c2ccc(O)cc21 (centres unmarked)
mRNA level ratio (PANC-1; DNA microarray, measured: GAPDH; concentration not given, lower dose arm; reference: untreated cells): 1.42 and 1.3 and 1.36 and 1.37 and 1.35

O=c1[nH]c(=S)n(C[C@H]2CCCO2)c2nc[nH]c12
inhibition (MPO; Amplex Red; 30 µM): 101%

COCC1CC2C(CCC3C(O)CCC32)c2ccc(O)cc21 (centres unmarked)
log2 fold change (A549; DNA microarray, measured: KIF20A; 25 µM; reference: untreated cells): 0.0344 and -0.0971 and 0.0311 and -0.0113 and -0.0304

Excerpt of the above (study 2):
0.00152 µM: 48.2%
0.000508 µM: 4.73%
